Assay results of several laboratories.
Protocols differ between the studies behind these lines.
Organism: Klebsiella pneumoniae

| Compound | test | test system | setting | MIC |
| --- | --- | --- | --- | --- |
| NC[C@H]1O[C@H](O[C@H]2[C@H](O)[C@@H](O[C@H]3O[C@H](CO)[C@@H](O)[C@H](N)[C@H]3O)[C@H](N)C[C@@H]2N)[C@H](O)[C@@H](O)[C@@H]1O | broth microdilution | ATCC 43816 | 16 h, 37 °C, cation-adjusted Mueller-Hinton broth | 1 µg/mL |
| c1ccc(OCCn2c(CNCC34CC5CC(CC(C5)C3)C4)nc3ccccc32)cc1 |  | ATCC 700603 |  | > 128 µg/mL |
| CNC(C)C1CCC(N)C(OC2C(N)CC(N)C(OC3OCC(C)(O)C(NC)C3O)C2O)O1 (stereo not shown) | bacterial growth | ESBL clinical isolate JMI 1052654 |  | 0.25 µg/mL |
| CO/N=C(\C(=O)N[C@@H]1C(=O)N2C(C(=O)O)=C(COC(C)=O)CS[C@H]12)c1csc(N)n1 | broth microdilution | NCTC 13438 | 24 h, ambient air | 128 µg/mL |
| C[C@]1(Cn2ccnn2)[C@H](C(=O)O)N2C(=O)C[C@H]2S1(=O)=O |  | ATCC 700603 ESBL | compound alone | 128 µg/mL |
| C[C@H]1COc2c(N3CCN(C)CC3)c(F)cc3c(=O)c(C(=O)O)cn1c23 | broth microdilution | NCTC 13438 | 24 h, ambient air | 64 µg/mL |
| O=C(Cc1ccccc1)N[C@@H]1C(=O)N2C(C(=O)O)=C(CSc3cccc4cccnc34)CS(=O)(=O)[C@H]12 |  | N11-2218 |  | > 128 µg/mL |
| N=C(N)c1ccc(OCc2cccc(COc3ccc(C(=N)N)cc3)c2)cc1 |  | ATCC 13883 | compound alone | > 200 µg/mL |
| CN(C)[C@@H]1C(O)=C(C(N)=O)C(=O)[C@@]2(O)C(O)=C3C(=O)c4c(O)cccc4[C@@](C)(O)[C@H]3C[C@@H]12 | broth microdilution | NCTC 13438 | 24 h, 5% CO2 | 4 µg/mL |
| CO[C@@]1(NC(=O)Cc2cccs2)C(=O)N2C(C(=O)O)=C(COC(N)=O)CS[C@@H]21 | broth microdilution | ATCC 43816 acrAB knockout |  | 1 µg/mL |
| O=C(N[C@H](CO)[C@H](O)c1ccc([N+](=O)[O-])cc1)C(Cl)Cl | broth microdilution | NCTC 13438 | 24 h, ambient air | 64 µg/mL |
| CN(C)c1ccc(CNc2ccc(C(=O)O)cc2)cc1 | broth microdilution |  |  | 64 µg/mL |
| CC[C@H](C)CCCCC(=O)N[C@@H](CCN)C(=O)N[C@H](C(=O)N[C@@H](CCN)C(=O)N[C@H]1CCNC(=O)[C@H]([C@@H](C)O)NC(=O)[C@H](CCN)NC(=O)[C@H](CCN)NC(=O)[C@H](CC(C)C)NC(=O)[C@@H](CC(C)C)NC(=O)[C@H](CCN)NC1=O)[C@@H](C)O | broth microdilution | ATCC 13883, cation-adjusted Mueller-Hinton broth | 18 to 20 h, 37 °C, 0.002% polysorbate 80 | 0.5 µg/mL |
| NC(=O)[C@@H]1CC[C@@H]2CN1C(=O)N2OS(=O)(=O)O |  | ATCC 1716 ESBL | compound alone | 16 µg/mL |
| CC(C)(O/N=C(\C(=O)N[C@@H]1C(=O)N2C(C(=O)[O-])=C(C[n+]3ccccc3)CS[C@H]12)c1csc(N)n1)C(=O)O | broth microdilution | NCTC 13438 | 24 h, ambient air | 512 µg/mL |
| C[C@@H](O)[C@H]1C(=O)N2C(C(=O)O)=C(SCCN=CN)C[C@H]12 | broth microdilution | BNCC 359393 |  | > 64 µg/mL |
| N=C(N)c1ccc(OCc2ccc(-c3ccccc3)cc2COc2ccc(C(=N)N)cc2)cc1 |  | ATCC 13883 | compound alone | > 200 µg/mL |
| NC[C@H]1O[C@H](O[C@H]2[C@H](O)[C@@H](O[C@H]3O[C@H](CO)[C@@H](O)[C@H](N)[C@H]3O)[C@H](N)C[C@@H]2N)[C@H](O)[C@@H](O)[C@@H]1O | broth microdilution | KP | 18 h | 16 µg/mL |
| CSc1ccc(CNc2ccc(C(=O)O)cc2)cc1 | broth microdilution |  |  | 256 µg/mL |
| CC1(C)S[C@@H]2[C@H](NC(=O)[C@H](N)c3ccc(O)cc3)C(=O)N2[C@H]1C(=O)O | broth microdilution | clinical isolate, Mueller-Hinton broth | 24 h, 37 °C | > 400 µM |
| CCn1cc(C(=O)O)c(=O)c2cc(F)c(N3CCNCC3)cc21 | broth microdilution | KP | 18 h | 8 µg/mL |
| CNC(C)C1CCC(N)C(OC2C(N)CC(N)C(OC3OCC(C)(O)C(NC)C3O)C2O)O1 (stereo not shown) | broth microdilution | NCTC 13438 | 24 h, ambient air | 2 µg/mL |
| CC1(C)S[C@@H]2[C@H](NC(=O)[C@H](N)c3ccccc3)C(=O)N2[C@H]1C(=O)O |  | ALE CTX-M-15, Mueller Hinton broth | overnight, 37 °C | 4 µg/mL |

| Compound | test | test system | setting | MIC |
| --- | --- | --- | --- | --- |
| Cc1cc(-c2cn[nH]c2-c2cccc(OCc3cccc(C#N)c3)c2)cc(C)n1 | CLSI broth microdilution | AR-0040 |  | 1 µg/mL |
| Cc1onc(-c2ccccc2)c1C(=O)N[C@@H]1C(=O)N2[C@@H]1SC(C)(C)[C@@H]2C(=O)O |  | DOU CTX-M-15, Mueller Hinton broth | overnight, 37 °C | > 512 µg/mL |
| CC[C@H]1OC(=O)[C@H](C)[C@@H](O[C@H]2C[C@@](C)(OC)[C@@H](O)[C@H](C)O2)[C@H](C)[C@@H](O[C@@H]2O[C@H](C)C[C@H](N(C)C)[C@H]2O)[C@](C)(O)C[C@@H](C)C(=O)[C@H](C)[C@@H](O)[C@]1(C)O | broth microdilution | ATCC 43816 acrAB knockout |  | 4 µg/mL |
| COC(=O)[C@H]1[C@H]2C[C@@H]3c4[nH]c5cc(OC)ccc5c4CCN3C[C@H]2C[C@@H](OC(=O)c2cc(OC)c(OC)c(OC)c2)[C@@H]1OC |  | ATCC BAA-2146 |  | > 128 µM |
| COc1cc(CNc2ccc(C(=O)O)cc2)cc(OC)c1O | broth microdilution |  |  | 64 µg/mL |
| O=C(N[C@H](CO)[C@H](O)c1ccc([N+](=O)[O-])cc1)C(Cl)Cl | broth microdilution | ATCC 43816 acrAB knockout |  | 1 µg/mL |
| COc1cccc(CNc2ccc(C(=O)O)cc2)c1 | broth microdilution |  |  | 64 µg/mL |
| O=C(O)C[C@@H]1CC[C@H](NC(=O)Cc2cccs2)B(O)O1 |  | ATCC 700603 ESBL | compound alone | > 128 µg/mL |
| COc1ccc(CNc2ccc(C(=O)O)cc2)cc1OC | broth microdilution |  |  | 64 µg/mL |
| O=C(O)c1cn(C2CC2)c2cc(N3CCNCC3)c(F)cc2c1=O |  | DOU CTX-M-15, Mueller Hinton broth | overnight, 37 °C | > 512 µg/mL |
| N=C(N)c1cccc(OCc2ccc(COc3cccc(C(=N)N)c3)cc2)c1 |  | ATCC 13883 | compound alone | > 200 µg/mL |
| CN[C@@H]1[C@@H](O[C@H]2O[C@H](CO)[C@@H](N)[C@H](O)[C@H]2O)OC2C[C@@H](N)[C@@H](O[C@H]3[C@H](O)[C@@H](O)[C@H](N)C[C@@H]3N)OC2[C@@H]1O (stereo partly shown) | broth microdilution | NCTC 13438 | 24 h, ambient air | 4 µg/mL |
| C[C@@H](O)[C@H]1C(=O)N2C(C(=O)O)=C(S[C@@H]3CN[C@H](C(=O)N(C)C)C3)[C@H](C)[C@H]12 | broth microdilution, MH medium | NCCP 16054 | 16 h, 37 °C, growth inhibition over 99% | 0.5 µM |
| C[C@@H](O)[C@H]1C(=O)N2C(C(=O)O)=C(S[C@@H]3CN[C@H](C(=O)N(C)C)C3)[C@H](C)[C@H]12 |  | 11228 |  | < 2 µg/mL |
| Cc1cc(NS(=O)(=O)c2ccc(N)cc2)no1 | broth microdilution | ATCC 43816 acrAB knockout |  | 32 µg/mL |
| Cc1c(CN(C)C(=O)/C=C/c2cnc3c(c2)CC(CCN)C(=O)N3)oc2ccccc12.Cl (stereo not shown) | broth microdilution | S47889 |  | 8 µg/mL |
| NC[C@H]1O[C@H](O[C@H]2[C@H](O)[C@@H](O[C@H]3O[C@H](CO)[C@@H](O)[C@H](N)[C@H]3O)[C@H](N)C[C@@H]2N)[C@H](N)C[C@@H]1O | broth microdilution | NCTC 13438 | 24 h, ambient air | 16 µg/mL |
| C[C@@H](O)[C@H]1C(=O)N2C(C(=O)O)=C(S[C@@H]3CN[C@H](C(=O)N(C)C)C3)[C@H](C)[C@H]12 |  | ALE CTX-M-15, Mueller Hinton broth | overnight, 37 °C | > 512 µg/mL |
| O=C(Cc1ccccc1)N[C@@H]1C(=O)N2C(C(=O)O)=C(CSc3cccc4cccnc34)CS[C@H]12 |  | 11228 |  | 32 µg/mL |
| Cc1c(CN(C)C(=O)/C=C/c2cnc3c(c2)CCC(=O)N3)oc2ccccc12 | broth microdilution | AR-0560 |  | > 32 µg/mL |
| CO/N=C(\C(=O)N[C@@H]1C(=O)N2C(C(=O)O)=C(COC(C)=O)CS[C@H]12)c1csc(N)n1 |  | ATCC 700603, Mueller Hinton broth | 37 °C | < 0.5 µg/mL |
| Cc1c(CN(C)C(=O)/C=C/c2cnc3c(c2)CC(NC(=O)OC(C)(C)C)C(=O)N3)oc2ccccc12 (stereo not shown) | broth microdilution | AR-0555 |  | > 32 µg/mL |
| c1ccc2[nH]c(CNCC34CC5CC(CC(C5)C3)C4)nc2c1 |  | ATCC 700603 |  | > 128 µg/mL |
